Measurements of several laboratories.
Each line is one published result; not all experiments were run side by side. Values joined by “and” are separate records of one study, mostly repeats; a detail may differ. Numbers after ± are the reported error.
UniProt Q13177, sequence (whole entry, looked up): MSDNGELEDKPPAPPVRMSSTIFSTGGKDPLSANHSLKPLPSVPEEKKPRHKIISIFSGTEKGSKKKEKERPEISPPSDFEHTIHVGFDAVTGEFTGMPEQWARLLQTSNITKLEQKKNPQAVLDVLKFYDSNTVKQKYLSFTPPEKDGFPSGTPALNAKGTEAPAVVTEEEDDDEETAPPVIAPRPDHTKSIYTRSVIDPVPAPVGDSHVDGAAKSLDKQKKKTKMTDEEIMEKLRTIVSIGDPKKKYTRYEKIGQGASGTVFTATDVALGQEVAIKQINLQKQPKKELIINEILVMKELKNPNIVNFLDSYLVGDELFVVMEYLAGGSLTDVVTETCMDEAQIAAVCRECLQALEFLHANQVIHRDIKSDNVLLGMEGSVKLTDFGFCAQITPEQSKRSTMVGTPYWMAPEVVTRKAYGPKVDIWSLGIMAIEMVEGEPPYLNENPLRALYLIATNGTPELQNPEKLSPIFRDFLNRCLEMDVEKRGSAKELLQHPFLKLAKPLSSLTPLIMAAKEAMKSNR
UniProt Q15418, sequence (whole entry, looked up): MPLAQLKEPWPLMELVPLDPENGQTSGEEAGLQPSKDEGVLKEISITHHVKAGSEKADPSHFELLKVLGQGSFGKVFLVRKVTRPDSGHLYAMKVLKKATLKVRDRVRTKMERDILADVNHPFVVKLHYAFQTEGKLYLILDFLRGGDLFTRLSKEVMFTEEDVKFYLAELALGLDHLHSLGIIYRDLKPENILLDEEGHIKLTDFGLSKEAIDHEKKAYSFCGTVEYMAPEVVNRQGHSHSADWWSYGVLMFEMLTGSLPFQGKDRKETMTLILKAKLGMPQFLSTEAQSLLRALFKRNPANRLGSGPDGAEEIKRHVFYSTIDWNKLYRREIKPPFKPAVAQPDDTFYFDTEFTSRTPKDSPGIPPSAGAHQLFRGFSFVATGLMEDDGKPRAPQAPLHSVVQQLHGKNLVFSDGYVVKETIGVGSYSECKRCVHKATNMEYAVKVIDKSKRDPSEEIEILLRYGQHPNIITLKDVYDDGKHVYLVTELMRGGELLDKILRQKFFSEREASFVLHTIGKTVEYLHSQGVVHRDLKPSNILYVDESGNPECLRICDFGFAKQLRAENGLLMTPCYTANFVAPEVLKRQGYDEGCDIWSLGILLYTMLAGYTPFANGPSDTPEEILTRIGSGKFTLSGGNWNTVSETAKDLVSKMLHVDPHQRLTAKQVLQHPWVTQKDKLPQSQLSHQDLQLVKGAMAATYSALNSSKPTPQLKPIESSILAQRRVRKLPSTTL

`CC(C)NCC(O)c1ccc(O)c(O)c1` (centres unmarked) has a sarcomere length of 1.51 µm (ventricular cardiomyocytes, C57BL/6 mouse; dose not given, 0.176 s).
`CCOC(=O)c1c(C)nc(NCCCNc2ccnc3cc(Cl)ccc23)nc1C` — result for “minimum cytotoxic concentration”: 100 µM (HEL; cell morphology).
`Cn1cc(-c2ccc(-c3cncc(Cl)c3N3CCC4(CCNC4=O)CC3)cc2)cn1`: “log2 fold change” 1.85 (COLO 205; gene expression, microarray, refers to: TNFRSF12A mRNA; concentration not given, 6 h; reference: untreated cells).
The Papp of `O=C(O)c1c(O)c(-c2ccccc2)nc2ccccc12` is reported as 8.4 ×10⁻⁶ cm/s (MDCK low-efflux cells; passive permeability; apical to basolateral).
For `CN1CCc2c(c3ccccc3n2Cc2ccc(C(=O)NO)cc2)C1`, the CC50 was 30 µM (NDHF fibroblasts; MTS; 120 h).
With `CCCCCCCC[N+](CCCCCCCC)(CCCCCCCC)CCCCCCCC.[Br-]` the LDH release was 259 mU/mL and 235 mU/mL (hTERT-RPTEC-OAT1; concentration not given, Transwell, apical-to-basolateral addition).
For `CC(C)[C@H](NC(=O)[C@H](Cc1ccc(O)cc1)NC(=O)[C@H](Cc1ccc(O)cc1)NC(=O)[C@@H]1CCCN1C(=O)[C@H](CCC(=O)O)NC(=O)[C@H](CCC(=O)O)NC(=O)[C@H](Cc1c[nH]c2ccccc12)NC(=O)[C@@H]1CCCN1C(=O)[C@@H](NC(=O)[C@H](CCC(N)=O)NC(=O)c1ccc2c(c1)C(=O)OC21c2ccc(O)cc2Oc2cc(O)ccc21)C(C)C)C(=O)N[C@H](C(=O)N[C@@H](CCCCN)C(=O)N[C@@H](CCCCN)C(=O)N[C@@H](CO)C(=O)N[C@@H](CO)C(=O)NCC(=O)NCC(N)=O)C(C)C`, the plasma concentration was 24500 ng/mL (human, plasma; intravenous infusion, 400 mg, 0.25 h).
For `CC(C)(C(=O)N1CCOc2c(C#N)cncc2C1)C(F)F`, “subjects with adverse event” read 0% (refers to: Cardiac disorders; human; oral, 10 mg once daily, 14 days, multiple ascending dose).
With `COc1cc2ncnc(Nc3ccc(Oc4ccccc4)cc3C)c2cc1OC.O=C(O)C(F)(F)F` the viability was 1 fraction of control and 0.999 fraction of control and 0.996 fraction of control and 0.992 fraction of control (HepG2 (NRAS Q61L); resazurin; concentration not given, 72 h, added: trametinib 0 nM).
For `Cc1cc(Nc2ccc(S(F)(F)(F)(F)F)cc2)n2nc(C(C)(F)F)nc2n1`, “patients with blood or lymphatic AEs” read 0% (Plasmodium vivax; human Plasmodium vivax malaria patients; oral, 800 mg).
`COc1ccc(Cn2cc(CO[C@@H]3O[C@H]4[C@H](OC[C@H]4O)[C@H]3O)nn2)cc1` — result for viability: “not toxic” (HCT-116; cytotoxicity, CellTiter-Glo; up to 30 µM, 72 h).
With `CC(C)C[C@H](NC(=O)C[C@H](O)[C@H](CC(C)C)NC(=O)[C@H](Cc1c[nH]cn1)NC(=O)CNC(=O)[C@@H](NC(=O)[C@H](C)NC(=O)[C@H](Cc1c[nH]c2ccccc12)NC(=O)[C@H](CCC(N)=O)NC(=O)[C@@H](Cc1ccccc1)NC(=O)COCCOCCNC(=O)CN1CCN(CC(=O)O)CCN(CC(=O)O)CCN(CC(=O)O)CC1)C(C)C)C(N)=O` [lutetium-177 labelled] the tissue uptake was 0.2 ± 0.1 %ID (BALB/c nu/nu mice, female, carcass incl. GI tract contents; intravenous, 50 pmol, 24 h).
`COc1ccc2ccc(C)nc2c1O` has a Papp of 3.4 ×10⁻⁶ cm/s (RRCK low-efflux MDCK-II cells; 1.5 h, 37 °C, apical to basal).
`COc1cccc(-c2n[nH]c(SCc3ccccn3)n2)c1OC` — result for “micronucleated binucleated cells”: 1.7% (CHO-WBL; 100 µg/mL, 3 h, added: rat liver S9).
For `Cc1cc(C(=O)NC(C)(C)COc2cccc3c2C(N)=NS(=O)(=O)N3)cc(C)n1`, “micronucleated binucleated cells” read 0.3% (human peripheral blood lymphocytes; in vitro micronucleus test; 0.2% DMSO; 250 µg/mL, 24 h).
The inhibition of `CC[C@@H]1[C@H](F)C(=O)N[C@@H]1COc1nccc2cc(C(N)=O)c(OC)cc12` is reported as 18% (Ribosomal protein S6 kinase alpha-1 (RPS6KA1, Homo sapiens, UniProt Q15418); ATP probe binding, KiNativ profiling, refers to: domain 1 activation loop; THP-1 cell lysate; 0.04 mM).
`Nc1nc2c(ncn2COCCO)c(=O)[nH]1`: “minimum cytotoxic concentration” over 250 µM (HEL).
Under “minimum cytotoxic concentration”, `C[C@H](NC(=O)[C@]1(Cc2ccccc2)CCN1C(=O)Oc1ccccc1)C(N)=O` is recorded as over 100 µM (HEL; cell morphology).
`Cc1cccc(C)c1N(CC(=O)Nc1ccc(-c2ncon2)cc1)C(=O)C1CCS(=O)(=O)CC1` gave a CC50 of over 60 µM (primary human fibroblasts uninfected; live/dead staining; 48 h).
For `CCOC(=O)c1c(C)nc(NCCCNc2ccnc3cc(Cl)ccc23)nc1-c1ccccc1`, “minimum cytotoxic concentration” read 20 µM (HEL; cell morphology).
The IC50 of `CC(C)=CCC[C@@]1(C)C(CC[C@H]2[C@]3(C)CC[C@H](O)C(C)(C)O[C@H]3CC[C@@]2(C)O)=C(C)CC[C@H]1O` is reported as over 50 µM (HEK293 empty vector; cell viability, MTT; 72 h).
`N#Cc1ccc2c(c1)[C@H]1CCCN(C(=O)c3ccc4[nH]cnc4c3)[C@H]1C2` — result for “cortisol level change”: -116 nmol/L (human; 240 mg, end of trial; reference: baseline).
`Cc1ccc2cccc(O)c2n1` gave a Papp of 3.35 ×10⁻⁶ cm/s (RRCK low-efflux MDCK-II cells; 1.5 h, 37 °C, apical to basal).
For `CC[C@H]1[C@@H](O)[C@@H]2[C@H](CC[C@]3(C)[C@@H]([C@H](C)CCNC(=O)NS(=O)(=O)c4ccc(C(C)(C)C)cc4)CC[C@@H]23)[C@@]2(C)CC[C@@H](O)C[C@@H]12`, the half-life was 10.8 h (ATP-dependent translocase ABCB1 (ABCB1, Homo sapiens, UniProt P08183); human, plasma; dose not given, mean, alone).
`CNCc1ccc(-c2[nH]c3cc(F)cc4c3c2CCNC4=O)cc1` — result for “time to steady state”: 30 min (SW-620; [14C] uptake; 400 nM).
For `CN1C(C(=O)Nc2cccc(F)n2)=C(O)c2ccccc2S1(=O)=O`, the Papp was 43 ×10⁻⁶ cm/s (MDCK low-efflux cells; passive permeability; apical to basolateral).
For `CCCC(CCC)NC(=O)c1ccc2c(c1)OCO2`, “cells with aberrations” read 0% (CHO-WBL; 1.67 mg/mL, without S9, exposure).
`NC(=O)c1ncn([C@@H]2O[C@H](CO)[C@@H](O)[C@H]2O)n1`: “minimum cytotoxic concentration” over 250 µM (HEL).
For `O=C(Nc1ccc([N+](=O)[O-])cc1Cl)c1cc(Cl)ccc1O`, the CC50 was over 10 µM (primary human fibroblasts uninfected; live/dead staining; 48 h, capped at 10.00 µM).
For `CC1(C)CCC(c2ccc(Cl)cc2)=C(CN2CCN(c3ccc(C(=O)NS(=O)(=O)c4ccc(N[C@H](CCN5CCOCC5)CSc5ccccc5)c(S(=O)(=O)C(F)(F)F)c4)cc3)CC2)C1`, “drug secreted with TRL” read 10.3 ± 6% (C2BBe1 monolayers; 50 % saturated solubility, 4 h, basolateral fractions 1-10, added: taurocholate/phosphatidylcholine micelles).
`CC(C)C[C@H](NC(=O)C[C@H](O)[C@H](CC(C)C)NC(=O)[C@H](Cc1c[nH]cn1)NC(=O)CNC(=O)[C@@H](NC(=O)[C@H](C)NC(=O)[C@H](Cc1c[nH]c2ccccc12)NC(=O)[C@H](CCC(N)=O)NC(=O)[C@@H](Cc1ccccc1)NC(=O)COCCOCCNC(=O)CCC(C(=O)O)N1CCN(CC(=O)O)CCN(CC(=O)O)CCN(CC(=O)O)CC1)C(C)C)C(N)=O` (some centres unmarked) [lutetium-177 labelled] gave a tissue uptake of 0.33 ± 0.09 %ID/g (BALB/c nu/nu mice, liver; intravenous, 100 pmol, 1 h, added: PA 300 µg).
`CC(C)NCC(O)c1ccc(NS(C)(=O)=O)cc1` (centres unmarked) — result for spike slope: “decreased” (hiPSC-derived cardiomyocytes; 50 µM, coupled state).
For `Cc1nn(C)cc1S(=O)(=O)NC(=O)c1ccc(-n2ccc(OCC(C)(C)C(F)(F)F)n2)nc1N1C[C@@H](C)CC1(C)C`, the Papp was 34.2 ×10⁻⁶ cm/s (MDCK low-efflux cells; passive permeability; apical to basolateral).
`OC(CCN1CCCCC1)(c1ccccc1)C1CC2C=CC1C2` (centres unmarked) — result for “change in EEG Beta3-power Pz-O1”: 6.3% (resting-state EEG; healthy elderly humans; oral, 4 mg, eyes closed, LS mean; reference: baseline).
`O=C(O)/C=C/c1ccccc1` has a viability of over 90% (LS174T; MTT; 3.1 to 50 µg/mL, 48 h, 10% FBS).
With `Cc1nc(N(C)C(=O)Cc2ccc(-c3ccccn3)cc2)sc1S(N)(=O)=O` the CC50 was over 10 µM (primary human fibroblasts uninfected; live/dead staining; 48 h, capped at 10.00 µM).
`O=C(Nc1ccncc1)c1cc([N+](=O)[O-])ccc1Cl` gave a CC50 of 22 µM (THP-1 PMA-differentiated macrophages; CellTiter-Glo; 72 h, host cell cytotoxicity).
For `O=C(O)CNC(=O)c1ncccc1O`, the Papp was 4.3 ×10⁻⁶ cm/s (MDCK low-efflux cells; passive permeability; apical to basolateral).
Under “free drug concentration”, `Cc1cc(Nc2ccc(S(F)(F)(F)(F)F)cc2)n2nc(C(C)(F)F)nc2n1` is recorded as 600 nM (EL4; culture medium; 5 µM, 48 h).
`Cc1ncc2c(c1O)COC2c1ccc(Cl)cc1` (centres unmarked) gave a Papp of 39.9 ×10⁻⁶ cm/s (MDCK low-efflux cells; passive permeability; apical to basolateral).
The CC50 of `CC1(C)CC(=O)c2c(C(F)(F)F)nn(-c3ccc(C(N)=O)c(N[C@H]4CC[C@H](O)CC4)c3)c2C1` is reported as over 60 µM (primary human fibroblasts uninfected; live/dead staining; 48 h).
`CC(C)CNC(=O)[C@H](C)NC(=O)[C@]1(Cc2ccccc2)CCN1C(=O)OCc1ccccc1` — result for “minimum cytotoxic concentration”: over 100 µM (HEL; cell morphology).
Under “lowest concentration prolonging”, `COc1ccccc1OCC(O)CN1CCN(CC(=O)Nc2c(C)cccc2C)CC1` (centres unmarked) is recorded as 5 µM (hiPSC-derived cardiomyocytes; beat period; 30 min, decoupled state).
The CC50 of `O=C(/C=C\n1cnc(-c2cc(C(F)(F)F)cc(C(F)(F)F)c2)n1)NNc1ccccn1` is reported as over 10 µM (primary human fibroblasts uninfected; live/dead staining; 48 h, capped at 10.00 µM).
`C[C@H](NC(=O)[C@]1(Cc2ccccc2)CCN1C(=O)Oc1cccc2ccccc12)C(N)=O`: “minimum cytotoxic concentration” over 100 µM (HEL; cell morphology).
For `CN1C(C(=O)Nc2ccccn2)=C(O)c2sc(Cl)cc2S1(=O)=O`, the Papp was 44.7 ×10⁻⁶ cm/s (MDCK low-efflux cells; passive permeability; apical to basolateral).
For `O=C1C(O)=C([C@H]2CC[C@H](c3ccc(Cl)cc3)CC2)C(=O)c2ccccc21`, the CC50 was 14.3 µM (THP-1 PMA-differentiated macrophages; CellTiter-Glo; 72 h, host cell cytotoxicity).
For `Nc1nc(O)c2ncn(COC(CO)CO)c2n1`, “minimum cytotoxic concentration” read 394 µM (HEL; cell morphology).
With `O=P1(C2CCCCC2)CCCCC1` the viability was 97% (SW-620; trypan blue; IC50, 72 h).
`C/C(O)=C(\C#N)C(=O)Nc1ccc(C(F)(F)F)cc1` — result for “free drug concentration”: 1040 nM (EL4; culture medium; 4 µM, 48 h).
`Cc1cn([C@H]2C[C@H](N=[N+]=[N-])[C@@H](CO)O2)c(=O)[nH]c1=O` gave a proliferation inhibition of under 5% (Cells, MOLT-4 and HUVEC; CCK-8; RPMI-1640, 10% FBS; 50 µM, up to 36 h).
`C[C@H](CCC(=O)NCC(=O)O)[C@H]1CC[C@H]2[C@@H]3[C@H](O)C[C@@H]4C[C@H](O)CC[C@]4(C)[C@H]3C[C@H](O)[C@]12C`: “bile salt transported fraction” over 90% (human hepatocytes in suspension; refers to: cholic acid, CDCA; 100 µM, 1 h).
`CN1CCN(c2ccc(Nc3ncc4cc(C#N)c(=O)n(C5CCCC5)c4n3)cc2)CC1` has an IC50 of 2.58 µM (Serine/threonine-protein kinase PAK 2 (PAK2, Homo sapiens, UniProt Q13177)).

Some of these lines once more:
`OC(CCN1CCCCC1)(c1ccccc1)C1CC2C=CC1C2` (centres unmarked) — result for “change in EEG Beta3-power Pz-O1”: 6.3% (resting-state EEG; healthy elderly humans; oral, 4 mg, eyes closed, LS mean; reference: baseline).
`O=C(O)/C=C/c1ccccc1` has a viability of over 90% (LS174T; MTT; 3.1 to 50 µg/mL, 48 h, 10% FBS).
For `Nc1nc(O)c2ncn(COC(CO)CO)c2n1`, “minimum cytotoxic concentration” read 394 µM (HEL; cell morphology).
For `Cc1cc(Nc2ccc(S(F)(F)(F)(F)F)cc2)n2nc(C(C)(F)F)nc2n1`, “patients with blood or lymphatic AEs” read 0% (Plasmodium vivax; human Plasmodium vivax malaria patients; oral, 800 mg).
